# Measured values collected from several papers.
# Numbered parts are unrelated; each lists some results of a single study.

# Sample 1
# Target: Centromere-binding protein 1, full length, N-terminal tag (CBF1, Saccharomyces cerevisiae, UniProt P17106, residues 1-351)
# UniProt P17106, sequence (whole entry, looked up): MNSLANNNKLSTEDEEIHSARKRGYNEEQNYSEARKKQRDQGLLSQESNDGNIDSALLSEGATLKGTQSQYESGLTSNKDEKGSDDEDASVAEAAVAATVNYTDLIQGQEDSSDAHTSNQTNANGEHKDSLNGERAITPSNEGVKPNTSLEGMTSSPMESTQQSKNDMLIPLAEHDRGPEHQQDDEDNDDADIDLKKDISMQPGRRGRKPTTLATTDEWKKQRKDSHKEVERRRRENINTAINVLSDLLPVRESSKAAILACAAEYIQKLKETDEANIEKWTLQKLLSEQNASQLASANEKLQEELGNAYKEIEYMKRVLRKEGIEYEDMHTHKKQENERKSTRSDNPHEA
# Technique: protein-binding microarray
# Molecule type: double-stranded DNA, one strand shown
# Matrix: in vitro
# Tested at: 0.8 µM
# Notes: whole 60-bp probe, no competitor
# Direction: higher = stronger binding
# All sequences stand within: … GTCTTGATTCGCTTGACGCTGCTG
Sequence,fluorescence intensity
CTACAACGTATTTCTTACGTGGTGAAAATAAGATTC,1080 a.u.
GAATTCAATAAATGTCACCACAATACCGATGCTTAG,492 a.u.
CTAAAGTCTGGAAGAGAGGTGGTGGAATTTCCATTC,482 a.u.
GAAATAAATAAACATCATCACAAGCAAGGTTATTAG,519 a.u.
GAATACAAAATTTTACATGTGGTACTATTTCTCTAG,610 a.u.
TGTACGAAGCTATCGCACATTTTTATAGTAGTTAGG,523 a.u.
CTAAACGTTGCTCCTCACCTGCATCTTGTAAGCTTC,516 a.u.
CTAAGAAAATCCAATCACGGTGTGACTGGTATCTTC,758 a.u.
CTAAGAGACCCAGCGCACGTATGCAAAAAAATATTC,550 a.u.

# Sample 2
# Target: Interferon regulatory factor 5, full length, phosphomimetic (IRF5, Homo sapiens, UniProt Q13568-2, residues 1-514, K96S/S451D/S453D/S456D/S462D)
# Technique: protein-binding microarray
# Molecule type: double-stranded DNA, one strand shown
# Matrix: in vitro
# Tested at: 250 nM
# Notes: 60-bp whole probe
# Together with: salmon DNA 0.4 mg/ml
# Relative to: random background probes
# Direction: higher = stronger binding
# All sequences stand within: GCCTAGCAC … GTCTTGATTCGCTTGACGCTGCTG
Sequence,log fluorescence [z-score]
TTAGATATCGGGTTTGGATTAGTGCTA,1.62
TTAGGACTGGACTTCCGGTTAGTGCTA,0.568
TTAGGACTGTGGTATCGGTTAGTGCTA,4.48
TCAAAGATCATTCTCACACTGTGCTAG,0.211
TTAGGTATCAGGACTGGGTTAGTGCTA,0.45
GACAATTTCGGGTATCGAGACGTGCTA,7.38

# Sample 3
# Target: Histone acetyltransferase KAT6A, winged helix 1, GST fusion (KAT6A, Homo sapiens, UniProt Q92794, residues 1-85)
# Technique: protein binding microarray
# Molecule type: double-stranded DNA, one strand shown
# Matrix: in vitro
# Tested at: not given
# Notes: 8-mer, flanks averaged, mean of 2 arrays, mostly near background
# Relative to: not given
# Direction: higher = stronger binding
# Target sequence (chain): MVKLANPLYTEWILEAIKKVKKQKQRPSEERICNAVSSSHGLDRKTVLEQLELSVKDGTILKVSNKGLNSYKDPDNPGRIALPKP
Sequence,E-score
CAAATATG,-0.0198
GGGACAGA,0.0316
CATCGGTA,0.129
CGGTCTCC,0.158
AGTTGCAG,-0.242
CTCAGCGA,0.0405
AAGGAGCC,0.0272
AGGACTAA,-0.0471
ATCACAAT,-0.179
AGTGAATA,-0.209

# Sample 4
# Substance: PhoQ, residues 284 288 289 292 302 303 QWGLFV
# Technique: Sort-seq
# Item: YFP reporter
# Matrix: E. coli
# Notes: PhoQ-PhoP variant library
# Together with: 10 µM Mg2+
# Relative to: high Mg2+ state
# Direction: higher = stronger signaling
target,fold induction
"PhoP, residues 12 14 15 18 19 LHTVL (Escherichia coli, UniProt P23836)",19.5
"PhoP, residues 12 14 15 18 19 TQAML (Escherichia coli, UniProt P23836)",22.8
"PhoP, residues 12 14 15 18 19 NQCAL (Escherichia coli, UniProt P23836)",38.6

# For quick reference, copied from above (sample 3):
Sequence,E-score
CTCAGCGA,0.0405
AAGGAGCC,0.0272
AGGACTAA,-0.0471
ATCACAAT,-0.179
AGTGAATA,-0.209
